Experimental data gathered from unrelated publications.
Numbered parts are unrelated; each lists some results of a single study.

Study 1
Target: Sal-like protein 4, full length isoform A (SALL4, Homo sapiens, UniProt Q9UJQ4, residues 1-1053)
Sequence of UniProt Q9UJQ4 (whole entry, looked up): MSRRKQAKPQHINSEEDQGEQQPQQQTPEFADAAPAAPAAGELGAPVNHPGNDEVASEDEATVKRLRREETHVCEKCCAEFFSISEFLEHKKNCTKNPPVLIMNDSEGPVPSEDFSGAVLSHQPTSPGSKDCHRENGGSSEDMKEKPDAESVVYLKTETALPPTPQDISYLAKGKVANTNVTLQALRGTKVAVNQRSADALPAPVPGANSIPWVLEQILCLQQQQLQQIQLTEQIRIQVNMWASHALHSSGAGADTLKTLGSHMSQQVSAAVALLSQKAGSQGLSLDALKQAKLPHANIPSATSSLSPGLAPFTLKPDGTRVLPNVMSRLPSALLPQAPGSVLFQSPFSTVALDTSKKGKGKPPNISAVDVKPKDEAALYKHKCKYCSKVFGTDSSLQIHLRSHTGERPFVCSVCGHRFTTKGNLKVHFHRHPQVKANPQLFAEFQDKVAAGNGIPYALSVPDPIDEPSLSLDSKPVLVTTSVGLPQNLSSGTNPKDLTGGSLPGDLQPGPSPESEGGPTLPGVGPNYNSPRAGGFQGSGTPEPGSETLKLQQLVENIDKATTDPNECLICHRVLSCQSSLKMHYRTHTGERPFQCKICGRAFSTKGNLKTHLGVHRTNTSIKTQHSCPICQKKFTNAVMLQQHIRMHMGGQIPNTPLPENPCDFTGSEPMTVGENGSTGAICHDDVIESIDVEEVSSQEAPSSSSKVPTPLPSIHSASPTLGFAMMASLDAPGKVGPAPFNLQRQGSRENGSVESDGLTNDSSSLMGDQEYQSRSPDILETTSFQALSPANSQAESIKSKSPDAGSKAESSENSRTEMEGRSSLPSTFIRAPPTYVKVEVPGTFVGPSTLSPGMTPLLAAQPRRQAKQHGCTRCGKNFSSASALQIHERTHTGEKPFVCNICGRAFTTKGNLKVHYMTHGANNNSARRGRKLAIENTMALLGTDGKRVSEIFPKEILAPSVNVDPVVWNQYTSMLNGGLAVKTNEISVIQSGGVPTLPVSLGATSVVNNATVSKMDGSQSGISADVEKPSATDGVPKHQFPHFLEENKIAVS
Method: universal PBM
Molecule type: double-stranded DNA, one strand shown
Matrix: in vitro
Concentration: 600 nM
Setting: 8-mer, flanks averaged, mean of replicates
Reading: higher = stronger binding
Strand	E-score
GAACTATA	0.265
AGGTATCA	0.081
AGGATGTG	0.0426

Study 2
Target: Histone acetyltransferase KAT6A, winged helix 1, GST fusion (KAT6A, Homo sapiens, UniProt Q92794, residues 1-85)
Method: protein binding microarray
Molecule type: double-stranded DNA, one strand shown
Matrix: in vitro
Concentration: not given
Setting: 8-mer, flanks averaged, mean of 2 arrays, mostly near background
Relative to: not given
Reading: higher = stronger binding
Target sequence (chain): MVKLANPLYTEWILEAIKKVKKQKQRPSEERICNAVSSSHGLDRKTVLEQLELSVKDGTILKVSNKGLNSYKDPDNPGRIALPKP
Strand	E-score
GGATACAA	-0.108
AACGAGGT	-0.0433
TACAACTA	-0.124
AGGAAGAT	-0.0531

Mixed results
IRF5 S451D/S453D/S456D/S462D full length, phosphomimetic: Interferon regulatory factor 5, full length, phosphomimetic (IRF5, Homo sapiens, UniProt Q13568-2, residues 1-514, S451D/S453D/S456D/S462D)
Substance	target	assay	system	setting	scale	measurement	result
GCCTAGCACTTAGGTTTAGACTATCGGTTAGTGCTAGTCTTGATTCGCTTGACGCTGCTG	IRF5 S451D/S453D/S456D/S462D full length, phosphomimetic	protein-binding microarray	double-stranded DNA, one strand shown, in vitro	940 nM top, 60-bp whole probe, added: salmon DNA 0.4 mg/ml	relative to: random background probes, higher = stronger binding	fitted relative affinity	0.303 z-score
PhoQ, residues 284 288 289 292 302 303 AAQSYM	PhoP, residues 12 14 15 18 19 SGWQI (Escherichia coli, UniProt P23836)	Sort-seq, refers to: YFP reporter	E. coli	PhoQ-PhoP variant library, added: 10 µM Mg2+	relative to: high Mg2+ state, higher = stronger signaling	fold induction	1.12
GCCTAGCACGACGGTTTCGGTCTGGGGACGTGCTAGGTCTTGATTCGCTTGACGCTGCTG	IRF5 S451D/S453D/S456D/S462D full length, phosphomimetic	protein-binding microarray	double-stranded DNA, one strand shown, in vitro	940 nM top, 60-bp whole probe, added: salmon DNA 0.4 mg/ml	relative to: random background probes, higher = stronger binding	fitted relative affinity	12.6 z-score

Some of these lines once more (study 2):
Strand	E-score
AACGAGGT	-0.0433
